{"data": "Experimental data pooled from the literature", "note": "Several values in a cell are separate wells, animals, samples, runs or records. ± marks the error that the study gave."}
{"Structure (SMILES)": "CC1(C)CC(=O)c2c(C(F)(F)F)nn(-c3ccc(C(N)=O)c(N[C@H]4CC[C@H](O)CC4)c3)c2C1", "cell line": "primary human fibroblasts uninfected", "test": "live/dead staining", "conditions": "48 h", "measurement": "CC50", "result": "> 60 µM"}
{"Structure (SMILES)": "NC(=O)c1ncn([C@@H]2O[C@H](CO)[C@@H](O)[C@H]2O)n1", "cell line": "HEL", "measurement": "minimum cytotoxic concentration", "result": "> 250 µM"}
{"Structure (SMILES)": "CCc1c(-c2ccccc2)c(-c2ccccc2)nn1-c1ccccc1-c1cccc(OCC(=O)O)c1", "cell line": "mouse bone marrow macrophages", "test": "CCK-8", "conditions": "0.5 µM, 4000 cells", "scale": "reference: untreated", "measurement": "viability", "result": "89% and 85.1% and 85.4% and 85.7% and 81.5% and 91.8%"}
{"Structure (SMILES)": "Nc1ccn([C@@H]2O[C@H](CO)[C@@H](O)C2(F)F)c(=O)n1", "cell line": "primary human fibroblasts uninfected", "test": "live/dead staining", "conditions": "48 h, capped at 10.00 µM", "measurement": "CC50", "result": "> 10 µM"}
{"Structure (SMILES)": "CCCC(CCC)NC(=O)c1ccc2c(c1)OCO2", "cell line": "CHO-WBL", "conditions": "1.67 mg/mL, without S9, exposure", "measurement": "cells with aberrations", "result": "0%"}
{"Structure (SMILES)": "CC(=O)[C@]1(O)Cc2c(O)c3c(c(O)c2[C@@H](O[C@H]2C[C@H](N)[C@H](O)[C@H](C)O2)C1)C(=O)c1ccccc1C3=O", "cell line": "THP-1 PMA-differentiated macrophages", "test": "CellTiter-Glo", "conditions": "72 h, host cell cytotoxicity", "measurement": "CC50", "result": "0.59 µM"}
{"Structure (SMILES)": "CC1=CC[C@H]2[C@@H]([C@@H]1CC[C@H]1[C@]3(C)CC[C@H](O)C(C)(C)O[C@H]3CC[C@]1(C)O)C(C)(C)CC[C@]2(C)O", "cell line": "HEK293 empty vector", "test": "cell viability, MTT", "conditions": "72 h", "measurement": "IC50", "result": "> 50 µM"}
{"Structure (SMILES)": "O=C1C(O)=C([C@H]2CC[C@H](c3ccc(Cl)cc3)CC2)C(=O)c2ccccc21", "cell line": "THP-1 PMA-differentiated macrophages", "test": "CellTiter-Glo", "conditions": "72 h, host cell cytotoxicity", "measurement": "CC50", "result": "14.3 µM"}
{"Structure (SMILES)": "O=C(Nc1ccc(Cl)c(Br)c1)c1ccc2c(c1)C(=O)NC2=O", "cell line": "BV-2", "test": "MTT", "conditions": "1 to 20 µM, 24 h", "measurement": "viability", "result": "not toxic"}
{"Structure (SMILES)": "COc1ccccc1OCC(O)CN1CCN(CC(=O)Nc2c(C)cccc2C)CC1 (centres unmarked)", "cell line": "hiPSC-derived cardiomyocytes", "test": "beat period", "conditions": "30 min, coupled state", "measurement": "highest concentration without effect", "result": "50 µM"}
{"Structure (SMILES)": "CCCCCCCC[N+](CCCCCCCC)(CCCCCCCC)CCCCCCCC.[Br-]", "cell line": "hTERT-RPTEC-OAT1", "test": "LDH release", "system": "culture medium", "conditions": "concentration not given, 24 h, 96-well plate", "measurement": "LDH activity in medium", "result": "31.2 mU/mL"}
{"Structure (SMILES)": "Nc1nc2c(ncn2COCCO)c(=O)[nH]1", "cell line": "HEL", "test": "cell morphology", "measurement": "minimum cytotoxic concentration", "result": "> 1780 µM"}
{"Structure (SMILES)": "CCOC(=O)c1c(C)nc(NCCCNc2ccnc3cc(Cl)ccc23)nc1C", "cell line": "HEL", "test": "cell morphology", "measurement": "minimum cytotoxic concentration", "result": "100 µM"}
{"Structure (SMILES)": "O=C(Nc1ccc([N+](=O)[O-])cc1Cl)c1cc(Cl)ccc1O", "cell line": "primary human fibroblasts uninfected", "test": "live/dead staining", "conditions": "48 h, capped at 10.00 µM", "measurement": "CC50", "result": "> 10 µM"}
{"Structure (SMILES)": "C[C@H](CCC(=O)NCC(=O)O)[C@H]1CC[C@H]2[C@@H]3[C@H](O)C[C@@H]4C[C@H](O)CC[C@]4(C)[C@H]3C[C@H](O)[C@]12C", "cell line": "human hepatocytes in suspension", "test": "item: cholic acid, CDCA", "conditions": "100 µM, 1 h", "measurement": "bile salt transported fraction", "result": "> 90%"}
{"Structure (SMILES)": "CN1C(C(=O)Nc2ccccn2)=C(O)c2ccccc2S1(=O)=O", "cell line": "MDCK low-efflux cells", "test": "passive permeability", "conditions": "apical to basolateral", "measurement": "Papp", "result": "25 ×10⁻⁶ cm/s"}
{"Structure (SMILES)": "Cc1cc(C(=O)NC(C)(C)COc2cccc3c2C(N)=NS(=O)(=O)N3)cc(C)n1", "cell line": "human peripheral blood lymphocytes", "test": "CBPI, preliminary test", "conditions": "20 µg/mL, 24 h", "scale": "reference: vehicle control", "measurement": "cytotoxicity", "result": "0%"}
{"Structure (SMILES)": "C=C(C)[C@@H]1CC[C@]2(C)CC[C@]3(C)[C@H](CC[C@@H]4[C@@]5(C)CC[C@H](O)C(C)(C)[C@@H]5CC[C@]43C)[C@@H]12", "cell line": "RPE cells", "test": "cytotoxicity", "conditions": "48 h", "measurement": "IC50", "result": "> 100 µg/mL"}
{"Structure (SMILES)": "COc1cccc(-c2n[nH]c(SCc3ccccn3)n2)c1OC", "cell line": "CHO-WBL", "conditions": "16 µg/mL, 19 h, without S9", "measurement": "binucleated cells with micronuclei", "result": "1.4%"}
{"Structure (SMILES)": "Cc1cc(NC(=O)C2=C(O)c3ccccc3S(=O)(=O)N2C)no1", "cell line": "MDCK low-efflux cells", "test": "passive permeability", "conditions": "apical to basolateral", "measurement": "Papp", "result": "23 ×10⁻⁶ cm/s"}
{"Structure (SMILES)": "Cc1nc(N(C)C(=O)Cc2ccc(-c3ccccn3)cc2)sc1S(N)(=O)=O", "cell line": "primary human keratinocytes", "conditions": "20 h", "measurement": "CC50", "result": "> 10 µM"}
{"Structure (SMILES)": "C[C@H](NC(=O)[C@@]1(Cc2ccccc2)CCN1C(=O)OCc1ccccc1)C(=O)NC(C)(C)C", "cell line": "HEL", "test": "cell morphology", "measurement": "minimum cytotoxic concentration", "result": "> 100 µM"}
{"Structure (SMILES)": "O=C(O)c1c(O)c(-c2ccccc2)nc2ccccc12", "cell line": "MDCK low-efflux cells", "test": "passive permeability", "conditions": "apical to basolateral", "measurement": "Papp", "result": "8.4 ×10⁻⁶ cm/s"}
{"Structure (SMILES)": "Cc1cc(Nc2ccc(S(F)(F)(F)(F)F)cc2)n2nc(C(C)(F)F)nc2n1", "cell line": "EL4", "system": "culture medium", "conditions": "20 µM, 48 h", "measurement": "free drug concentration", "result": "2400 nM"}
{"Structure (SMILES)": "CCOC(=O)c1c(C)nc(NCCCNc2ccnc3cc(Cl)ccc23)nc1-c1ccccc1", "cell line": "HEL", "test": "cell morphology", "measurement": "minimum cytotoxic concentration", "result": "20 µM"}
{"Structure (SMILES)": "CCOc1cc(CC(=O)N[C@@H](CC(C)C)c2ccccc2N2CCCCC2)ccc1C(=O)O", "cell line": "MDCK low-efflux cells", "test": "passive permeability", "conditions": "apical to basolateral", "measurement": "Papp", "result": "27.8 ×10⁻⁶ cm/s"}
{"Structure (SMILES)": "Nc1ccn(C[C@@H](CO)OCP(=O)(O)O)c(=O)n1.O.O", "cell line": "HEL", "measurement": "minimum cytotoxic concentration", "result": "> 250 µM"}
{"Structure (SMILES)": "Cc1cccc(C)c1N(CC(=O)Nc1ccc(-c2ncon2)cc1)C(=O)C1CCS(=O)(=O)CC1", "cell line": "primary human keratinocytes", "conditions": "20 h", "measurement": "CC50", "result": "> 10 µM"}
{"Structure (SMILES)": "Nc1ccn([C@H]2CC[C@@H](CO)O2)c(=O)n1", "cell line": "HEL", "measurement": "minimum cytotoxic concentration", "result": "> 250 µM"}
{"Structure (SMILES)": "C[C@H]1C[C@@H](N2C(=N)N[C@](C)(c3cccc(NC(=O)c4cccc(C#N)c4)c3Cl)CC2=O)CCO1", "cell line": "human liver microtissue", "test": "hepatotoxicity", "measurement": "IC50", "result": "> 50 µM"}
{"Structure (SMILES)": "CC(=O)Nc1cccc(-n2c(=O)n(C3CC3)c(=O)c3c(Nc4ccc(I)cc4F)n(C)c(=O)c(C)c32)c1", "cell line": "LoVo (KRAS G13D)", "test": "resazurin", "conditions": "6.25 nM, 72 h", "scale": "reference: DMSO", "measurement": "viability fraction", "result": 0.586}
{"Structure (SMILES)": "CC1(C)CCC(c2ccc(Cl)cc2)=C(CN2CCN(c3ccc(C(=O)NS(=O)(=O)c4ccc(N[C@H](CCN5CCOCC5)CSc5ccccc5)c(S(=O)(=O)C(F)(F)F)c4)cc3)CC2)C1", "cell line": "C2BBe1 monolayers", "conditions": "50 % saturated solubility, 4 h, basolateral fractions 1-10, with: taurocholate/phosphatidylcholine micelles", "measurement": "drug secreted with TRL", "result": "10.3 ± 6%"}
{"Structure (SMILES)": "Cc1nc(NCCCNc2ccnc3cc(Cl)ccc23)nc(-c2cccc([N+](=O)[O-])c2)c1C(=O)OC(C)C", "cell line": "HEL", "test": "cell morphology", "measurement": "minimum cytotoxic concentration", "result": "20 µM"}
{"Structure (SMILES)": "C/C(O)=C(\\C#N)C(=O)Nc1ccc(C(F)(F)F)cc1", "cell line": "EL4", "system": "culture medium", "conditions": "0.4 µM, 48 h", "measurement": "free drug concentration", "result": "100 nM"}
{"Structure (SMILES)": "Cc1cc(C)c(CNC(=O)c2cc(Cl)c3c(c2C)O[C@@](C)([C@H]2CC[C@H](N(C)C)CC2)O3)c(=O)[nH]1", "cell line": "Caco-2", "conditions": "30 µM, with: verapamil 100 µM", "measurement": "efflux ratio", "result": 0.97}
{"Structure (SMILES)": "Cc1ncc2c(c1O)COC2c1ccc(Cl)cc1 (centres unmarked)", "cell line": "MDCK low-efflux cells", "test": "passive permeability", "conditions": "apical to basolateral", "measurement": "Papp", "result": "39.9 ×10⁻⁶ cm/s"}
{"Structure (SMILES)": "CC(C)NCC(O)c1ccc(NS(C)(=O)=O)cc1 (centres unmarked)", "cell line": "hiPSC-derived cardiomyocytes", "conditions": "5 µM, decoupled state", "measurement": "spike slope", "result": "no effect"}
{"Structure (SMILES)": "COc1ccc(Cn2cc(CO[C@@H]3O[C@H]4[C@H](OC[C@H]4O)[C@H]3O)nn2)cc1", "cell line": "HCT-116", "test": "cytotoxicity, CellTiter-Glo", "conditions": "up to 30 µM, 72 h", "measurement": "viability", "result": "not toxic"}
{"Structure (SMILES)": "CN1C(C(=O)Nc2ccccn2)=C(O)c2sc(Cl)cc2S1(=O)=O", "cell line": "MDCK low-efflux cells", "test": "passive permeability", "conditions": "apical to basolateral", "measurement": "Papp", "result": "44.7 ×10⁻⁶ cm/s"}
{"Structure (SMILES)": "Cc1cn([C@H]2C[C@H](N=[N+]=[N-])[C@@H](CO)O2)c(=O)[nH]c1=O", "cell line": "Cells, MOLT-4 and HUVEC", "test": "HPLC-MS/MS", "system": "RPMI-1640, 10% FBS", "conditions": "100 µM, time course", "measurement": "extracellular concentration change", "result": "< 10%"}
{"Structure (SMILES)": "Cc1ccc2cccc(O)c2n1", "cell line": "RRCK low-efflux MDCK-II cells", "conditions": "1.5 h, 37 °C, apical to basal", "measurement": "Papp", "result": "3.35 ×10⁻⁶ cm/s"}
